Measured values pooled from the literature.
Lines come from different studies, so protocols differ.
Medium: plasma

CN[C@H](CC(C)C)C(=O)N[C@H]1C(=O)N[C@@H](CC(N)=O)C(=O)N[C@H]2C(=O)N[C@H]3C(=O)N[C@H](C(=O)N[C@H](C(=O)N[C@H](CCCNC(=N)N)C(N)=O)c4cc(O)cc(O)c4-c4cc3ccc4O)[C@H](O)c3ccc(c(Cl)c3)Oc3cc2cc(c3O[C@@H]2O[C@H](CO)[C@@H](O)[C@H](O)[C@H]2O[C@H]2C[C@](C)(N)[C@H](O)[C@H](C)O2)Oc2ccc(cc2Cl)[C@H]1O gave an AUC of 8870 ng·h/mL (female CD-1 mouse; intravenous, 5 mg/kg, single dose).
For O=S(=O)(N[C@H]1CCO[C@@H](C2c3ccc(F)cc3CCc3cc(F)ccc32)C1)c1ccc(OC(F)(F)F)cc1, the AUC was 22400 ng·h/mL (mouse; oral, 30 mg/kg).
For COC1C=COC2(C)Oc3c(C)c(O)c4c(c3C2=O)C2=NC3(CCN(CC(C)C)CC3)NC2=C(NC(=O)C(C)=CC=CC(C)C(O)C(C)C(O)C(C)C(OC(=O)Nc2cnccn2)C1C)C4=O (stereo not drawn), the AUC was 38000 ng·h/mL (female CD-1 mouse; intravenous, 5 mg/kg).
Cc1cc(C(=O)N[C@@H](CC(=O)NC(C)(C)C)C(=O)NCCNC(=O)c2cccc(-c3cc[nH]n3)c2)no1 gave an AUC of 12.6 ng·h/mL (mouse; intravenous, 0.1 mg/kg).
COC1C=COC2(C)Oc3c(C)c(O)c4c(c3C2=O)C2=NC3(CCN(CC(C)C)CC3)NC2=C(NC(=O)C(C)=CC=CC(C)C(O)C(C)C(O)C(C)C(OC(=O)c2cccnc2)C1C)C4=O (stereo not drawn) has an AUC of 27900 ng·h/mL (female CD-1 mouse; intravenous, 5 mg/kg).
COC1C(c2ccc(Cl)c(Cc3ccc(OC4CCOC4)cc3)c2)OC(CO)C(O)C1O (stereo not drawn) has an AUC of 23600 ng·h/mL (CD-1 mouse; oral, 10 mg/kg).
Cc1cc(C(=O)N[C@@H](CC(=O)NC(C)(C)C)C(=O)NCCNC(=O)c2cccc(-n3cccn3)c2)no1 has an AUC of 14.1 ng·h/mL (mouse; intravenous, 0.1 mg/kg).
COc1ccccc1NC(=O)OC1C(C)C(OC)C=COC2(C)Oc3c(C)c(O)c4c(c3C2=O)C2=NC3(CCN(CC(C)C)CC3)NC2=C(NC(=O)C(C)=CC=CC(C)C(O)C(C)C(O)C1C)C4=O (stereo not drawn) has an AUC of 10200 ng·h/mL (female CD-1 mouse; oral, 10 mg/kg).
With O=S(=O)(Nc1ccc(OC(F)(F)F)cc1)N1CCCC(C2c3ccc(F)cc3CCc3cc(F)ccc32)C1 (stereo not drawn) the AUC was 44800 ng·h/mL (mouse; oral, 30 mg/kg).

Excerpt of the above:
Cc1cc(C(=O)N[C@@H](CC(=O)NC(C)(C)C)C(=O)NCCNC(=O)c2cccc(-n3cccn3)c2)no1 has an AUC of 14.1 ng·h/mL (mouse; intravenous, 0.1 mg/kg).
